Published values gathered from unrelated publications.
Parts stem from different laboratories: compare values within a part only. “And” joins repeats or separate records; there may be more than shown.
UniProt P54756, sequence (whole entry, looked up): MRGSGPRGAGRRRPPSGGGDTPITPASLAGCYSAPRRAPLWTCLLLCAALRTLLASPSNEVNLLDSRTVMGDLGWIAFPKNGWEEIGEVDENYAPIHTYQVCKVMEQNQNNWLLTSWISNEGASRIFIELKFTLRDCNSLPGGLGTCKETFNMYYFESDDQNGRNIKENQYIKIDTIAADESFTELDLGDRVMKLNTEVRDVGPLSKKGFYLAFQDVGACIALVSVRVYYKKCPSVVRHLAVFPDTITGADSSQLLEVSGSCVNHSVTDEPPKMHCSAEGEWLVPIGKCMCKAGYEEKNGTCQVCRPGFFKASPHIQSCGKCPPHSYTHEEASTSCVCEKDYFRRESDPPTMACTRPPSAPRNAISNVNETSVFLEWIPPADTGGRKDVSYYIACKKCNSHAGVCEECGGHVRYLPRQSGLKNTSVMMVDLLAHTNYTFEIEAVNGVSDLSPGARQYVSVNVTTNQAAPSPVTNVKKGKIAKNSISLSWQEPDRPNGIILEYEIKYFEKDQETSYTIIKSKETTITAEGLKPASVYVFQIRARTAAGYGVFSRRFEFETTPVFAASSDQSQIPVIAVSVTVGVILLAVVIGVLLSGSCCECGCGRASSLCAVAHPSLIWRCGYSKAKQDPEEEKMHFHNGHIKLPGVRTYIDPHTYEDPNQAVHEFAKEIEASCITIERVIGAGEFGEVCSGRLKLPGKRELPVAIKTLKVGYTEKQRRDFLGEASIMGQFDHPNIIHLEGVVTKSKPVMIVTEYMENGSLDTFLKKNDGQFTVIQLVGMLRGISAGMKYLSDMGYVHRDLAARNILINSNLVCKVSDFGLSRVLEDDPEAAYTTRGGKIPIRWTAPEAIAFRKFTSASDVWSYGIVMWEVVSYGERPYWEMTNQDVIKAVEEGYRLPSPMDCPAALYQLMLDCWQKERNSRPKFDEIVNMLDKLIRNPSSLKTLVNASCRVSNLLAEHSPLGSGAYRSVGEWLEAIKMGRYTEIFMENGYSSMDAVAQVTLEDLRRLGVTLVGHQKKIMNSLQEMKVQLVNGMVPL
UniProt Q9UBE8, sequence (whole entry, looked up): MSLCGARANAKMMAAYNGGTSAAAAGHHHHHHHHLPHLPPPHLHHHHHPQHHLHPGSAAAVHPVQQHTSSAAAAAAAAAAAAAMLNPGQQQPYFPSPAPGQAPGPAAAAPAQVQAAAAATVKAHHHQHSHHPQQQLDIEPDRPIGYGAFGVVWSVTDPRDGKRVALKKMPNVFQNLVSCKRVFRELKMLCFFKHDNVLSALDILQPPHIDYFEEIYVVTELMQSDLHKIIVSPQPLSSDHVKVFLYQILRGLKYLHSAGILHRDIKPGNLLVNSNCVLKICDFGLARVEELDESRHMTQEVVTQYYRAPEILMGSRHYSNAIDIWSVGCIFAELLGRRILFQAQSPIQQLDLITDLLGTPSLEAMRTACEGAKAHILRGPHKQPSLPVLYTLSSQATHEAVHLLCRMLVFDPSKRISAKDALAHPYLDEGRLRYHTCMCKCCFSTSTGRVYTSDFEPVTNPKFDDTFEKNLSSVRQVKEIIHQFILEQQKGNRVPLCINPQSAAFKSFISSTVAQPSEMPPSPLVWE
UniProt Q99755, sequence (whole entry, looked up): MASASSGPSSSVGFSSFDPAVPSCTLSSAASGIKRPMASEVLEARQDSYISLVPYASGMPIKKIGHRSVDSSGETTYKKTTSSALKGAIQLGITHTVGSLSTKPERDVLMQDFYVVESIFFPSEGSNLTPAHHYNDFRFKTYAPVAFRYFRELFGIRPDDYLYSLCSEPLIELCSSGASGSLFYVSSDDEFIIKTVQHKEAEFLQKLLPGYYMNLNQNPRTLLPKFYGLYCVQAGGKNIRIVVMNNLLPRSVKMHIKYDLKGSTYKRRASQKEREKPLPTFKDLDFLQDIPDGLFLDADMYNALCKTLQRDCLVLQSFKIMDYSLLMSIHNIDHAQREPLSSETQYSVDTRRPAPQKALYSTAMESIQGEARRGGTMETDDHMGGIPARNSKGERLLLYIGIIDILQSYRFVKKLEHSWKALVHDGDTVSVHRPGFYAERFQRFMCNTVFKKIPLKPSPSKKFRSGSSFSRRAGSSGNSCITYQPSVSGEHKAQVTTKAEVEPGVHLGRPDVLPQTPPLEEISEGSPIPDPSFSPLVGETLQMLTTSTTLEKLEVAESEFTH
UniProt Q9Y2I7, sequence (whole entry, looked up): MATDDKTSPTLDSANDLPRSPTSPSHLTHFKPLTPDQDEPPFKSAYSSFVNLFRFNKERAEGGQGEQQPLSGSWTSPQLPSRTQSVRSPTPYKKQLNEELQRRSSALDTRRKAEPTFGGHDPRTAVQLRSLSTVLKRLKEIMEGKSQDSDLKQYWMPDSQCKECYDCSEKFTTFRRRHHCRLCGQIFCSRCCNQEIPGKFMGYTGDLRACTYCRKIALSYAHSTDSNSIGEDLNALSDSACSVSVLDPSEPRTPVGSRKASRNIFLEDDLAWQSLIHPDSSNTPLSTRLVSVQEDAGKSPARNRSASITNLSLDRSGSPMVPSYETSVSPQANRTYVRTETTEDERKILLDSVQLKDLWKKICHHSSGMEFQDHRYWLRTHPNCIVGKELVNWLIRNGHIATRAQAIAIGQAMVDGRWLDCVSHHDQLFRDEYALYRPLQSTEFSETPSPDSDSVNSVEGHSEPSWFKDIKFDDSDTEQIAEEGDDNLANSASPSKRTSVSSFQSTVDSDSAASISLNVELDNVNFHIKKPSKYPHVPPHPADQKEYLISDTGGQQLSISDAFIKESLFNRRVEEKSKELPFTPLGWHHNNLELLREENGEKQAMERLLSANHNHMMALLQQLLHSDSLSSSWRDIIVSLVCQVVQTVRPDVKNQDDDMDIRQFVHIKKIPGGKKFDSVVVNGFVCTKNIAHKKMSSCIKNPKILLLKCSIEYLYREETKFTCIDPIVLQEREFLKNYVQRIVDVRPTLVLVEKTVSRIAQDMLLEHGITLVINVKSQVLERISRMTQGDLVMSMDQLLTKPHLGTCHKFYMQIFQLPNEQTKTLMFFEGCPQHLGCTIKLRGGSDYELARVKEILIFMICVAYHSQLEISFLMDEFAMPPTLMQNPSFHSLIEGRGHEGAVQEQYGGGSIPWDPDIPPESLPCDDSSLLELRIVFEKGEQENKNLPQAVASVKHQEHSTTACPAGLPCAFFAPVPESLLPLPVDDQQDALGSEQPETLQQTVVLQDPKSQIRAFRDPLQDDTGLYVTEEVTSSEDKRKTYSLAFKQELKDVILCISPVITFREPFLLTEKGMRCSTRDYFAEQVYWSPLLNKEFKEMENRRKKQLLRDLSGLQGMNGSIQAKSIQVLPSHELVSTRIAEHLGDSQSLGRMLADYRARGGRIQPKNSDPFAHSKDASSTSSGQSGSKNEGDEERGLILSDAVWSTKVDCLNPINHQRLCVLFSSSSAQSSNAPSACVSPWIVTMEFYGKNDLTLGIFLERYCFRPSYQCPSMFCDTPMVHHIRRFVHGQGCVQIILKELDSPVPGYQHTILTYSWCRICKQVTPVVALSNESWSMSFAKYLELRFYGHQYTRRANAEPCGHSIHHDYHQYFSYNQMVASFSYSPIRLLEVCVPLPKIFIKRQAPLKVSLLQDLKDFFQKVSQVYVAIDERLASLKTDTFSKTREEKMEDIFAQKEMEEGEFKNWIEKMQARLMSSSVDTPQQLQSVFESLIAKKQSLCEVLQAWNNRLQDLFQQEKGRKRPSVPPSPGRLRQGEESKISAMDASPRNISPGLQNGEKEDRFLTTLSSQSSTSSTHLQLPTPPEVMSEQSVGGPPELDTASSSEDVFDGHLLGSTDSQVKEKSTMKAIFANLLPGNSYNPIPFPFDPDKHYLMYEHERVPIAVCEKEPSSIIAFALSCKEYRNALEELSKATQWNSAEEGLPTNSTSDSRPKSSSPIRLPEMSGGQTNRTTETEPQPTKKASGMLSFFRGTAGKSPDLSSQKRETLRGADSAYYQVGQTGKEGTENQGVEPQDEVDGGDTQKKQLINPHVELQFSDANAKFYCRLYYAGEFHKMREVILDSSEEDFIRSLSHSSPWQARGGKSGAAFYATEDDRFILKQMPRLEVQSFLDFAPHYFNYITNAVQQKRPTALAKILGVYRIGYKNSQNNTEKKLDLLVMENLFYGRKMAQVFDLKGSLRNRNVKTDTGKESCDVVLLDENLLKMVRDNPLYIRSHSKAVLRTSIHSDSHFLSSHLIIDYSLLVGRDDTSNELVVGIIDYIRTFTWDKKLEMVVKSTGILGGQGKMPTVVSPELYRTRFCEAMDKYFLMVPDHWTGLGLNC
UniProt Q15349, sequence (whole entry, looked up): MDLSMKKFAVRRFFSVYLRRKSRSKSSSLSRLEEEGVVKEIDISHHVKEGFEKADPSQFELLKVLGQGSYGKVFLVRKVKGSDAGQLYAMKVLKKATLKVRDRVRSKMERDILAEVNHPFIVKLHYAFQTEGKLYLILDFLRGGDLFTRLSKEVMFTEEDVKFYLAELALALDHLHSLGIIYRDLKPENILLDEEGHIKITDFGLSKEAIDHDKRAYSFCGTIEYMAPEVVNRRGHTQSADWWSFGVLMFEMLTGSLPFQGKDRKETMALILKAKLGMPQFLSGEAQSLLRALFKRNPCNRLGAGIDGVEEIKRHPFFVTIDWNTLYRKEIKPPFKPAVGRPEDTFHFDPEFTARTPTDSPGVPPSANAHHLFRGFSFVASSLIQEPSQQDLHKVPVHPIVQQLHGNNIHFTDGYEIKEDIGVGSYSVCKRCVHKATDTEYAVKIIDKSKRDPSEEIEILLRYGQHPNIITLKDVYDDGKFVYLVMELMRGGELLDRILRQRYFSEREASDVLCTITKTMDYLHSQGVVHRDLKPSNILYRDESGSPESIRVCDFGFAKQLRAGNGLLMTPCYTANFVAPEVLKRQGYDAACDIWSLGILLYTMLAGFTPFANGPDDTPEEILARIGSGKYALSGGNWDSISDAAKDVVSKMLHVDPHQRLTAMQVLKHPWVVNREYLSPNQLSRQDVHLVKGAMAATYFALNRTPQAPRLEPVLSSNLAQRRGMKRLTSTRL

Study 1 — concentration: 1 µM
SMILES: Cn1cncc1[C@](O)(COc1ccc(C#N)cc1-c1ccc(OC(F)(F)F)cc1)c1ccc(C#N)cc1
target | test | remaining binding [%]
CDC42BPA (Homo sapiens, UniProt Q5VT25) | cell-free assay, competition with immobilised ligand | 78
NLK (Homo sapiens, UniProt Q9UBE8) | cell-free assay, competition with immobilised ligand | 89
CAMK1G (Homo sapiens, UniProt Q96NX5) | cell-free assay, competition with immobilised ligand | 96
PIP5K1A (Homo sapiens, UniProt Q99755) | cell-free assay, competition with immobilised ligand | 91
EPHA5 (Homo sapiens, UniProt P54756) | cell-free assay, competition with immobilised ligand | 97
MAP4K3 (Homo sapiens, UniProt Q8IVH8) | cell-free assay, competition with immobilised ligand | 100
RET (Homo sapiens, UniProt P07949, V804M) | cell-free assay, competition with immobilised ligand | 99
PTK6 (Homo sapiens, UniProt Q13882) | cell-free assay, competition with immobilised ligand | 100
CDK18 (Homo sapiens, UniProt Q07002) | cell-free assay, competition with immobilised ligand | 90
CDC42BPG (Homo sapiens, UniProt Q6DT37) | competition binding | 85
STK17B (Homo sapiens, UniProt O94768) | cell-free assay, competition with immobilised ligand | 64
Tyrosine-protein kinase ABL1, non-phosphorylated (ABL1, Homo sapiens, UniProt P00519) | cell-free assay, competition with immobilised ligand | 100
Tyrosine-protein kinase ABL1, non-phosphorylated (ABL1, Homo sapiens, UniProt P00519, H396P) | cell-free assay, competition with immobilised ligand | 91
PIKFYVE (Homo sapiens, UniProt Q9Y2I7) | cell-free assay, competition with immobilised ligand | 100
GRK2 (Homo sapiens, UniProt P25098) | cell-free assay, competition with immobilised ligand | 74
LATS1 (Homo sapiens, UniProt O95835) | cell-free assay, competition with immobilised ligand | 87
Ribosomal protein S6 kinase alpha-2, C-terminal kinase domain (RPS6KA2, Homo sapiens, UniProt Q15349) | cell-free assay, competition with immobilised ligand | 85
LRRK2 (Homo sapiens, UniProt Q5S007, G2019S) | cell-free assay, competition with immobilised ligand | 92

Study 2 — effect on: peptide-MHC binding; molecule type: peptide; concentration: concentration not given
Target: HLA class I histocompatibility antigen, C alpha chain, allele C*04:01 (Homo sapiens, UniProt P10321)
Molecule | binding
TEMYIMYAM | inactive
FVVDTTPPL | inactive
YMRERFEPM | inactive
RRLHRLLLM | inactive
RRYASQTEL | inactive

Study 3
SMILES: CC(C)S(=O)(=O)c1ccc2nccc(Nc3ccc4scnc4c3)c2c1
target or system | test | test system | conditions | CC50
– | CCK-8 | L929 RIPK3 knockout, mouse | MEM with 10% FBS | 28.8 µM and 18.9 µM
L929 | cell growth or viability | – | – | 22.5 µM
L929 | cell viability, CCK-8 | – | without zVAD, 10% FBS, mean of 3 | 6.32 µM

Study 4 — species: mouse; medium: microsomes or S9; concentration: 2 µM; time: 0.5 h
SMILES | remaining compound
COc1ccc(Cn2c(=O)[nH]c(-c3ccc(F)cc3)c(-c3ccc(F)cc3)c2=O)cc1 | 88.6%
Cc1nn(-c2n[nH]c(C)c2Br)c(C)c1C | 14.2%
O=C(c1ccccc1)c1cc(Cl)ccc1Nc1cccc2c1N(c1ncccn1)CCC2 | 0.902%
C=C(C)[C@@H]1CCC2=CC(=O)C[C@@H](C)[C@]2(C)C1 | 10.9%
COCCN(Cc1ccn(C)c(=O)c1)Cc1cccs1 | 0.0465%
COc1ccc(S(=O)(=O)Nc2ncccn2)cc1 | 67.1%
C1=NN(c2ccccc2)C2c3ccccc3OCC12 (stereo not drawn) | 2.26%
N#Cc1cccn2cc(-c3cccc(Br)c3)nc12 | 36.9%

Single results of other studies
SMILES | target or system | test | conditions | endpoint | result
C=C(C)[C@H]1Cc2c(ccc3c2O[C@@H]2COc4cc(OC)c(OC)cc4[C@@H]2C3=O)O1 | CAMK2A (Homo sapiens, UniProt Q9UQM7) | enzyme activity, inhibitor | 10 µM | inhibition | 10%
Cc1ncc(-c2cc3cc(-c4c(C)ccc(O)c4C)cnc3[nH]2)cn1 | HCC1569 | in-cell western, measured: CDK1 phospho-Thr14 | – | IC50 | > 10 µM

Excerpt of the above (study 3):
target or system | test | test system | conditions | CC50
L929 | cell viability, CCK-8 | – | without zVAD, 10% FBS, mean of 3 | 6.32 µM
L929 | cell growth or viability | – | – | 22.5 µM
– | CCK-8 | L929 RIPK3 knockout, mouse | MEM with 10% FBS | 28.8 µM and 18.9 µM
